Assay results gathered from unrelated publications.
Numbered parts are unrelated; each lists some results of a single study.

Study 1
Target: Interferon regulatory factor 5, full length, phosphomimetic (IRF5, Homo sapiens, UniProt Q13568-2, residues 1-514, K96S/S451D/S453D/S456D/S462D)
Technique: protein-binding microarray
Molecule type: double-stranded DNA, one strand shown
Medium: in vitro
Concentration: 250 nM
Setting: 60-bp whole probe
Together with: salmon DNA 0.4 mg/ml
Relative to: random background probes
Direction: higher = stronger binding
Shared flanks, not repeated: GCCTAGCAC … GTCTTGATTCGCTTGACGCTGCTG
Strand | log fluorescence
TTAGGTTTCGGTCTCGTTTAGTGCTAG | 10.3 z-score
TTAGGTTTACTTCTCCTTTAGTGCTAG | 0.357 z-score
GTAGTTTTCATTATTGTTTCGTGCTAG | 3.94 z-score
GACGGTCTCGGTATGGGGACGTGCTAG | 0.167 z-score
TTAGGTTGCGGACTGGGTTAGTGCTAG | -0.172 z-score
GACGGACTGCTTCTCCTGCCGTGCTAG | -0.392 z-score
TTAGGACTTCTTCTCCTTTAGTGCTAG | 0.059 z-score
GACGGTATCGCCTTTCGGGACGTGCTA | 2.52 z-score
GACGGTTCCGGTTCCGGGACGTGCTAG | 0.852 z-score
TTAGATTTCAGTCTCGATTTGTGCTAG | 2.94 z-score
GATGGTTTCGGTTTCGGGACGTGCTAG | 10.8 z-score
TTAGGTTCCCTACTGCTTTAGTGCTAG | -0.249 z-score
ATTTTTTTCTAATTGAAATGGTGCTAG | 1.13 z-score
GACGGCTCCCTTTTCCTGACGTGCTAG | -0.104 z-score
TGAGGTCTCCTTATCCTTTAGTGCTAG | -0.151 z-score
ATAGGTTCCCTTTTCCTTTAGTGCTAG | 0.619 z-score
TTAGCTTTCAGTTTCGATTAGTGCTAG | 11.2 z-score

Study 2
Target: RING finger protein unkempt homolog, zinc fingers 1-6, GST-SBP tag (UNK, Homo sapiens, UniProt Q9C0B0, residues 30-357)
UniProt Q9C0B0, sequence (30-357, looked up): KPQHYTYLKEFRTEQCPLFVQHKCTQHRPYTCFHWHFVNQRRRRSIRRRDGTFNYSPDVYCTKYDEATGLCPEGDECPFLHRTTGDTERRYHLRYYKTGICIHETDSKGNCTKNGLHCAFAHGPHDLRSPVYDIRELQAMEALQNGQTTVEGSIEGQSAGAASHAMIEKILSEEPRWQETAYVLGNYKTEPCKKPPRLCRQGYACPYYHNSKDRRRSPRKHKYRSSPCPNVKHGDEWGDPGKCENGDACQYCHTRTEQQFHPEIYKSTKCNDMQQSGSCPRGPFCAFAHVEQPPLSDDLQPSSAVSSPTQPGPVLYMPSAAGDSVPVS
Technique: RNA Bind-n-Seq
Molecule type: RNA
Medium: in vitro
Concentration: not given
Setting: RNA with constant flanks, human and mouse sites, ends assumed
Relative to: input RNA pool
Direction: higher = stronger binding
Strand | bound/input enrichment [ratio]
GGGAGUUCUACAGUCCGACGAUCUCCCAGACUCCAACUCCCAGUUCUACUUUCUUCCAGGCAGAGCUGUGGAUCAAAGAAUUAACUAGUGUUUAUGAUUCUCGAGCACGAGAAAGAUUGCGCCAGAUUGAAGAACAGAAGGCACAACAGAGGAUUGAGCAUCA | 1.22
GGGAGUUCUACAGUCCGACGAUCAGGGAAAGAAGCAAGCACAAGCUUUUACAGUAAAGCUUGUAAUCACAUGGGGACCAUACAAUCAUCCUAAAGGAUUUAGAAUUCAAGUGAAAAAACAAACAAACAAACAUUACUAUGUUACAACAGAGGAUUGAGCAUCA | 0.51
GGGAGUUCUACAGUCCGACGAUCACUCCAAGACUGUGUUCGGGAGUCCUUGGAACUGUGGUCCAUGGUAAAGUUUUACAGGAGUUAGGACCUGGAAAUGUACAGAAAGAAGUCUCAUCUUCCUUUGACCACGUUAUCAAGGAGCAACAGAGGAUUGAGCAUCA | 0.0896
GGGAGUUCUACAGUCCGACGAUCUUAACACCGUUGAAGAACUUGGUGAAGAACAAGAUAGAGACUCAUCUUUUUGCCUUUGAGAUUUACUUUAGGAAAGAAAAGUUUCUUUUGAUGCUACAAUCAGUAAAGAGGGCAUUUGCUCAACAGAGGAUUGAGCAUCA | 0.295
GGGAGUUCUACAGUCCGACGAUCUUGCUGGUGCUGACGGGCCUGUCUGUCCUCAUCGUGGCUGUCCACAUCCUGGAGCUGCUUAUUGACGAGGCUGCCAUGCCACGGGGCAUGCAGGAUGCUGCCCUAGGCCAGGCCUCCUUCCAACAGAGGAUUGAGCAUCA | 0.0592
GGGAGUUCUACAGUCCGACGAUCUUCUUGAAGGCUAUUGGGUAUCUUAUUCCUCUUAUGGAUGCAGAAUAUGCCAACUACUAUACUAGAGAAGUGAUGUUAAUCCUCAUUCGAGAAUUUCAGUCUCCUGAUGAAGAAAUGAAGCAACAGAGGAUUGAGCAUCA | 0.948
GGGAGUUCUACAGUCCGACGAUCGUGGACACACAACAUUUAAUUAAACAAUUAAGGCAGCAUUUUGCUAUGCUCUGAUUGUUCCUUAGACCACAUAUGUUCUUAUGAAGCAGCAUUAUGCAAGGGGAAAAAAGCACUAUGUCUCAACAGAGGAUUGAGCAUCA | 1.04
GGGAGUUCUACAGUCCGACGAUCUCUGUUUUGUCAGCAAGAGGAUUUAAGACUCACCCAGGGCAAACACUGGGACCACUGUAAGAGCGCUGGAACAUUCUGCCUCUUGAGUGAAGGGGCCUUCUUUCUAGCCUCUAUGGCACUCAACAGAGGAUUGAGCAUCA | 0.129

Study 3
Target: Ras GTPase-activating protein-binding protein 1, C-terminal RGG region (G3BP1, Homo sapiens, UniProt Q13283)
UniProt Q13283, sequence (whole entry, looked up): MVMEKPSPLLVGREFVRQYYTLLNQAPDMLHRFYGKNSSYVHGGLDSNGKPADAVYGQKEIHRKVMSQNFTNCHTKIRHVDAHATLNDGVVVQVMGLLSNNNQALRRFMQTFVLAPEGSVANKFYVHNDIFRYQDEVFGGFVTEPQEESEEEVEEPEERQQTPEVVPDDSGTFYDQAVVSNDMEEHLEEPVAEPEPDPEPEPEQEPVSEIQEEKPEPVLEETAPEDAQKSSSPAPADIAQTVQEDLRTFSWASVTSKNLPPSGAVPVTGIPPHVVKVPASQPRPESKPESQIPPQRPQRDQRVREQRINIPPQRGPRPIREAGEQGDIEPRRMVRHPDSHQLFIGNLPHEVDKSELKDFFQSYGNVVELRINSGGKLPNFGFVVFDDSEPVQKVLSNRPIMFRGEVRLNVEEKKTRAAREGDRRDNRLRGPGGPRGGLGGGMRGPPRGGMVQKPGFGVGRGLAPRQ
Technique: RNA Bind-n-Seq
Molecule type: RNA
Medium: in vitro
Concentration: 1 µM
Setting: whole 134-nt RNA, ends assumed
Together with: 150 mM KCl
Relative to: input library
Direction: higher = stronger binding
Strand | log2 enrichment
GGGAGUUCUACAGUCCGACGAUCGUCCUGUGCUACACAUCGUAUGUACCGAAUCAAAUUUAAACCCCCCCAAAUUUUUAAAAAAGUAUUAUGUUACGCCGUUCGGAUCUGCACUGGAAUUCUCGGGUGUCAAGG | -0.0699
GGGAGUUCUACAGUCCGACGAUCUGGGAGGUGGAUUUUGUUUAUUUUUUUAGCUCAUUUCCAGGGGUGGGAAUUUUUUUUUAAUAUGCGUCAUGAAUAAAGUUGUUUUUGAAAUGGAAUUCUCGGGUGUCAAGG | 3.4
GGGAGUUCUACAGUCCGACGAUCGGCACAGGUGCCCGACCAUACACUGGGAAAGUUGGUGCUGAGGAUGCCGAUGGGAUUGACAUGGCCUACCGGGUGCUGGCUGACCACGCUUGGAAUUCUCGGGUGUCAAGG | -1.31
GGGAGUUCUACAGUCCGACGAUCCCUCAAGUCCUGUGCUACACAUCGUAUGUACCGAAUCGGGAGGGAGGGGAGGGAAAGUAUUAUGUUACGCCGUUCGGAUCUGCACUUCCAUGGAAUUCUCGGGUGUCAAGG | 2.63
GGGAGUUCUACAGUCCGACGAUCCUCAAGUCCUGUGCUACACAUCGUAUGUACCGAAUCGGGCCGGGCCGGCCGGGGAAAGUAUUAUGUUACGCCGUUCGGAUCUGCACUUCCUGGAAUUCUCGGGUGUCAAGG | -1.02
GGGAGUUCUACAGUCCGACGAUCUCAAGUCCUGUGCUACACAUCGUAUGUACCGAAUCGGUUUUUUUGGUUUGGAGGAAAGUAUUAUGUUACGCCGUUCGGAUCUGCACUUCCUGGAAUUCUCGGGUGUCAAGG | -1.44
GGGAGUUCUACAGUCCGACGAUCGCAGGAAGUAAAAACAAAUGGCAAUGCUUCGGAUAGUGGCAGGGGUGGGGGUUGCUAAGGAAAGGGUGGGAUGGGAGUGGGUAAAGAGUUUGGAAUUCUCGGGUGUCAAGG | 2.41
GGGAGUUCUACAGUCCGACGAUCCAAGUCCUGUGCUACACAUCGUAUGUACCGAAUCGGCCCCGGGCCCCGGCCCCGGAAAGUAUUAUGUUACGCCGUUCGGAUCUGCACUUCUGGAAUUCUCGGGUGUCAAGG | -1.99
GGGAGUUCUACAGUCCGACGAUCGUCCUGUGCUACACAUCGUAUGUACCGAAUCGGUUUUUGGGUUUUUGGGGUUUUUGGGGAAAGUAUUAUGUUACGCCGUUCGGAUCUGCAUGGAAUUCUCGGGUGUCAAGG | -0.754

Study 4
Target: Sal-like protein 4, full length isoform B (SALL4, Homo sapiens, UniProt Q9UJQ4-2, residues 1-616)
Technique: universal PBM
Molecule type: double-stranded DNA, one strand shown
Medium: in vitro
Concentration: not given
Setting: 8-mer, flanks averaged, mean of replicates
Direction: higher = stronger binding
Strand | E-score
CAGCCCAA | -0.107
CTCATGCC | -0.135
ACAGAGTA | 0.131
AATAAGCA | 0.268
CATTGGCA | 0.0126
ATGTTTAA | 0.283
CCCATTTC | -0.0377
CAGATTGA | -0.0221
ATGGGCGG | -0.181
AGCTTATC | -0.051
CGTTCTCC | -0.133
AGTGCCGG | -0.227
CCTCATTC | -0.0402
ACGACAAC | -0.116
GCAGTGCC | -0.343
ACGCGGTG | -0.271
GCGAGCGA | -0.228
AGAGGCTG | -0.201
GCAGATCA | -0.0858
ACGATTGG | 0.087
CCTTGGCC | -0.306
GAGCAAAC | 0.0536
ACTAGCTA | -0.0584
AGCCTCTC | -0.112
AGCCTCCA | -0.102
